Results collected from several papers.
Numbers after ± are the reported error.

Structure (SMILES) = N=C(N)NCCC[C@@H]1NC(=O)[C@H](CCCCNC(=O)CC[C@H](NC(=O)CCOCCOCCOCCOCCNC(=O)CC[C@H](NC(=O)CN2CCN(CC(=O)O)CCN(CC(=O)O)CCN(CC(=O)O)CC2)C(=O)NCCOCCOCCOCCOCCC(=O)N[C@@H](CCC(=O)NCCCC[C@@H]2NC(=O)[C@@H](Cc3ccccc3)NC(=O)[C@H](CC(=O)O)NC(=O)CNC(=O)[C@H](CCCNC(=N)N)NC2=O)C(=O)NCCCC[C@@H]2NC(=O)[C@@H](Cc3ccccc3)NC(=O)[C@H](CC(=O)O)NC(=O)CNC(=O)[C@H](CCCNC(=N)N)NC2=O)C(=O)NCCCC[C@@H]2NC(=O)[C@@H](Cc3ccccc3)NC(=O)[C@H](CC(=O)O)NC(=O)CNC(=O)[C@H](CCCNC(=N)N)NC2=O)NC(=O)[C@@H](Cc2ccccc2)NC(=O)[C@H](CC(=O)O)NC(=O)CNC1=O [indium-111 labelled]; test system = female athymic nude mice, muscle; setting = intravenous, 3 µCi, 0.5 h, U-87 MG glioma xenograft; endpoint = tissue uptake; result = 0.93 ± 0.29 %ID/g
Structure (SMILES) = Cc1ccc(OCC(=O)N(Cc2cccs2)c2ccn[nH]2)cc1; test system = Crl:CD(SD) rat, bred female; setting = oral, 1000 mg/kg/day, total per group, developmental toxicity; endpoint = total corpora lutea count; result = 419
Structure (SMILES) = CC[C@H](C)[C@H](NC(=O)[C@H](CCC(=O)O)NC(=O)[C@H](CCC(=O)O)NC(=O)[C@H](Cc1ccccc1)NC(=O)[C@H](CC(=O)O)NC(=O)CNC(=O)[C@H](CC(N)=O)NC(=O)CNC(=O)CNC(=O)CNC(=O)CNC(=O)[C@@H]1CCCN1C(=O)[C@H](CCCNC(=N)N)NC(=O)[C@@H]1CCCN1C(=O)[C@H](N)Cc1ccccc1)C(=O)N1CCC[C@H]1C(=O)N[C@@H](CCC(=O)O)C(=O)N[C@@H](CCC(=O)O)C(=O)N[C@@H](Cc1ccc(O)cc1)C(=O)N[C@@H](CC(C)C)C(=O)O; assay = LC-MS/MS; test system = human plasma; setting = -20 to 25 °C, three freeze-thaw cycles, nominal 240.0 ng/mL; endpoint = concentration; result = 239 ± 4.5 ng/mL
Structure (SMILES) = CC[C@H](C)[C@H](NC(=O)CNC(=O)[C@H](Cc1c[nH]c2ccccc12)NC(=O)[C@@H](NC(=O)[C@@H](NC(=O)[C@H](CC(C)C)NC(=O)[C@H](CCC(N)=O)NC(=O)[C@H](CC(C)C)NC(=O)[C@@H](N)CC(C)C)[C@@H](C)O)C(C)C)C(=O)N[C@@H](CCCCN)C(=O)N[C@@H](CCC(N)=O)C(=O)N[C@@H](CC(C)C)C(=O)N[C@@H](CCC(N)=O)C(=O)N[C@@H](C)C(=O)N[C@@H](CCCNC(=N)N)C(=O)N[C@H](C(=O)N[C@@H](CC(C)C)C(N)=O)[C@@H](C)CC; assay = C2 column; endpoint = RP-HPLC retention time; result = 18.2 min
Structure (SMILES) = CCCCCCCC/C=C\CCCCCCCCOP(O)(O)=S.N; test system = mouse, female, irradiated; setting = subcutaneous, single dose 24 h after irradiation, together with: 15.6 Gy partial-body irradiation; endpoint = Vz/F; result = 1.23 L/kg
Structure (SMILES) = CC(C)C[C@@H](NC(=O)[C@@H](C)NC(=O)[C@@H](CC(C)C)NC(=O)[C@@H](CCCCN)NC(=O)[C@@H](CCCCN)NC(=O)[C@@H](CC(C)C)NC(=O)[C@@H](C)NC(=O)[C@@H](CC(C)C)NC(=O)[C@@H](CC(C)C)NC(=O)[C@@H](Cc1c[nH]c2ccccc12)NC(=O)[C@@H](CCCCN)NC(=O)[C@@H](CCCCN)NC(=O)[C@@H](CC(C)C)NC(=O)[C@@H](C)NC(=O)[C@@H](CC(C)C)NC(=O)[C@@H](CC(C)C)NC(=O)[C@@H](C)NC(=O)[C@@H](CC(C)C)NC(=O)[C@@H](CCCCN)NC(=O)[C@H](N)CCCCN)C(=O)N[C@H](CC(C)C)C(=O)N[C@H](C)C(=O)N[C@H](CC(C)C)C(=O)N[C@H](CCCCN)C(=O)N[C@H](CCCCN)C(N)=O; assay = haemolysis; test system = human erythrocytes; setting = 30 min, pH 7.4, 37 °C; endpoint = HC50; result = 4.06 ± 1.3 µM
Structure (SMILES) = COc1ccc(C)cc1NC(=O)OC1CC2CCCC(C1)N2Cc1ccc(CC[18F])cc1 (centres unmarked); test system = BALB/c mice, EMT6 tumour; setting = 2 h; how to read = relative to: tumour over lung; endpoint = tumour to tissue ratio; result = 0.82
Structure (SMILES) = COC(=O)C[C@](O)(CCCC(C)(C)OC(C)=O)C(=O)O[C@@H]1C(OC)=C[C@]23CCCN2CCc2cc4c(cc2[C@H]13)OCO4; test system = CD1 mice, plasma; setting = subcutaneous, 1 mg/kg, 8 h; endpoint = concentration; result = 2.57 ng/mL
Structure (SMILES) = N=C(N)NCCC[C@@H]1NC(=O)[C@H](CCCCNC(=O)CCOCCOCCOCCOCCNC(=O)CN2CCN(CC(=O)O)CCN(CC(=O)O)CCN(CC(=O)O)CC2)NC(=O)[C@@H](Cc2ccccc2)NC(=O)[C@H](CC(=O)O)NC(=O)CNC1=O [indium-111 labelled]; test system = female athymic nude mice, lungs; setting = intravenous, 3 µCi, 1 h, U-87 MG glioma xenograft; endpoint = tissue uptake; result = 1.01 ± 0.05 %ID/g
Structure (SMILES) = COC(=O)C1=CO[C@@H](OC(C)=O)[C@@H]2C(Cn3cc(CCO[Si](C)(C)C(C)(C)C)nn3)=CC[C@H]12; target or system = SK-N-SH; assay = neuroprotection, MTT; setting = 0.3 µM, 24 h, together with: 250 µM H2O2; endpoint = viability; result = 62.8 ± 0.2%
Structure (SMILES) = C[S]1CC[S]2CC[P](CO)(CO)[99Tc+]12.[C-]#[O+].[C-]#[O+].[C-]#[O+]; test system = CF-1 mouse; setting = intravenous, 4 h; endpoint = uptake in blood; result = 0.4 %ID
Structure (SMILES) = CCN(Cc1ccccc1)C(=O)CCc1nc(CN2CCN(C(=O)Cc3ccc(OC)c(OC)c3)CC2)no1; target or system = Potassium voltage-gated channel subfamily KQT member 2 (KCNQ2, Homo sapiens, UniProt O43526); assay = whole-cell patch clamp; test system = CHO stable; setting = 300 nM; endpoint = V1/2 of activation; result = -39.9 ± 22 mV
Structure (SMILES) = CC[C@H](C)[C@@H]1NC(=O)[C@H](C(C)C)NC(=O)[C@H](C(C)C)NC(=O)[C@H](CC(C)C)NC(=O)C[C@@H](C(=O)N[C@@H](Cc2c[nH]c3ccccc23)C(=O)N[C@@H](CC(N)=O)C(=O)N[C@@H](C)C(=O)N2CCC[C@H]2C(=O)NCC(=O)N[C@@H](Cc2ccccc2)C(=O)N[C@@H](Cc2ccccc2)C(=O)O)NC(=O)[C@H](C)NC(=O)[C@H](CCC(N)=O)NC(=O)[C@H](C(C)C)NC1=O; assay = HPLC; setting = 3 h, 95 °C; endpoint = thermal stability; result = stable
Structure (SMILES) = CN(C)C(CNC(=O)Nc1cc(C(F)(F)F)ccc1N1CCOCC1)c1ccncc1 (centres unmarked); test system = mouse, serum; setting = intraperitoneal, 180 mg/kg single dose; endpoint = amylase; result = 373 U/L
Structure (SMILES) = CC[C@H](C)C(=O)N1CCC(NC(=O)Nc2ccc(OC(F)(F)F)c(F)c2)CC1; test system = healthy volunteers, both sexes; setting = oral, 8 mg, fed state; endpoint = subjects with injection site reaction; result = 7.1%
Structure (SMILES) = CC(C)[C@H](NC(=O)CNC(=O)[C@H](CCC(N)=O)NC(=O)[C@H](C)N)C(=O)O; assay = Probably drug-related; test system = human; setting = 20 mg/kg, 3 days, thrice daily dosing; endpoint = subjects with adverse events; result = 0%
Structure (SMILES) = CCNc1cc2[o+]c3cc(NCC)c(C)cc3c(-c3ccccc3C(=O)OCCOCC[18F])c2cc1C; test system = rat, muscle; setting = 30 min; endpoint = tissue uptake; result = 0.12 ± 0.01 %ID/g
Structure (SMILES) = COC(=O)C1=CO[C@@H](O)[C@@H]2C(Cn3cc(CN4C(=O)c5ccccc5C4=O)nn3)=CC[C@H]12; target or system = SK-N-SH; assay = neuroprotection, MTT; setting = 0.3 µM, 24 h, together with: 250 µM H2O2; endpoint = viability; result = 75.5 ± 0.1%
Structure (SMILES) = CC(C)C[C@@H](NC(=O)[C@@H](CCCCN)NC(=O)CNC(=O)CNC(=O)[C@@H]1CSSC[C@H](N)C(=O)NCC(=O)N[C@@H](CCCNC(=N)N)C(=O)N[C@@H](CCCNC(=N)N)C(=O)N[C@@H](C)C(=O)NCC(=O)NCC(=O)N[C@@H](CO)C(=O)N1)C(=O)N[C@H](C)C(=O)N[C@H](CCCCN)C(=O)N[C@H](CC(C)C)C(=O)N[C@H](C)C(=O)N[C@H](CCCCN)C(=O)N[C@H](CCCCN)C(=O)N[C@H](CC(C)C)C(=O)N[C@H](C)C(=O)N[C@H](CCCCN)C(=O)N[C@H](CC(C)C)C(=O)N[C@H](C)C(=O)N[C@H](CCCCN)C(=O)O; test system = cynomolgus monkey; setting = intravenous infusion, 9 mg/kg, 2 h infusion; endpoint = elimination rate constant; result = 1.03 ± 0.22 h⁻¹
Structure (SMILES) = COc1cc2ccnc(Cc3ccc(O[11CH3])c(OC)c3)c2cc1OC; test system = Sprague-Dawley rat; setting = intravenous, 30 min; how to read = relative to: 5 min value; endpoint = liver uptake; result = 48%

Excerpt of the above:
Structure (SMILES) = C[S]1CC[S]2CC[P](CO)(CO)[99Tc+]12.[C-]#[O+].[C-]#[O+].[C-]#[O+]; test system = CF-1 mouse; setting = intravenous, 4 h; endpoint = uptake in blood; result = 0.4 %ID
Structure (SMILES) = CCN(Cc1ccccc1)C(=O)CCc1nc(CN2CCN(C(=O)Cc3ccc(OC)c(OC)c3)CC2)no1; target or system = Potassium voltage-gated channel subfamily KQT member 2 (KCNQ2, Homo sapiens, UniProt O43526); assay = whole-cell patch clamp; test system = CHO stable; setting = 300 nM; endpoint = V1/2 of activation; result = -39.9 ± 22 mV
Structure (SMILES) = CC[C@H](C)[C@@H]1NC(=O)[C@H](C(C)C)NC(=O)[C@H](C(C)C)NC(=O)[C@H](CC(C)C)NC(=O)C[C@@H](C(=O)N[C@@H](Cc2c[nH]c3ccccc23)C(=O)N[C@@H](CC(N)=O)C(=O)N[C@@H](C)C(=O)N2CCC[C@H]2C(=O)NCC(=O)N[C@@H](Cc2ccccc2)C(=O)N[C@@H](Cc2ccccc2)C(=O)O)NC(=O)[C@H](C)NC(=O)[C@H](CCC(N)=O)NC(=O)[C@H](C(C)C)NC1=O; assay = HPLC; setting = 3 h, 95 °C; endpoint = thermal stability; result = stable
